Measurements of several laboratories.
± gives the spread as reported.
Technique: steady-state kinetics
B1: ycjQ (Escherichia coli, UniProt P76043); chain MKKLVATAPRVAALVEYEDRAILANEVKIRVRFGAPKHGTEVVDFRAASPFIDEDFNGEWQMFTPRPADAPRGIEFGKFQLGNMVVGDIIECGSDVTDYAVGDSVCGYGPLSETVIINAVNNYKLRKMPQGSSWKNAVCYDPAQFAMSGVRDANVRVGDFVVVVGLGAIGQIAIQLAKRAGASVVIGVDPIAHRCDIARRHGADFCLNPIGTDVGKEIKTLTGKQGADVIIETSGYADALQSALRGLAYGGTISYVAFAKPFAEGFNLGREAHFNNAKIVFSRACSEPNPDYPRWSRKRIEETCWELLMNGYLNCEDLIDPVVTFANSPESYMQYVDQHPEQSIKMGVTF
B2: sacB S173T (Priestia megaterium, UniProt D5DC07); chain KGNDSKDFNNSYGISHITRDNMVKIPQQQNSDQFKVPAFDESTIKNIASAKGKNASGNTIDLDVWDSWPLQNADGTVATYHGYQIVFALAGDPKDSNDTSVYLFYKKAGDKSIDSWKNAGRVFKDSDKFVPNDPHLKNQTQEWTGSGTLTKDGKVRLFYTDYSGKQYGKQTLTTAQVNMSQPNDNTLKVDGVEDYKSIFDGDGKIYQTVQQFIDEGGYDTGDNHTLRDPHYIEDNGHKYLVFEANTGTEDGYQGEDSLYNRAYYGGNNPFFQSEKKKLLEGSNKEKASLANGALGIIELNDDYTLKKVMKPLITSNTVTDEIERANIFKKDGKWYLFTDSRGSKMTIDGIGQDDVYMLGYVSNTLTGKYKPLNDTGLVLHMDLDPNDKTFTYSHFAVPQTKGDNVVITSYMTNRGFYEDNHSTFAPSFLVNIDGSKTSVVKDRVLEQGQLTVDED
B3: tsaM1 F253S/H255G/M230N/R216A/S234V/S257H/T232I/Y220I (Comamonas testosteroni, UniProt P94679); chain MFIRNCWYVAAWDTEIPAEGLFHRTLLNEPVLLYRDTQGRVVALENRCCHRSAPLHIGRQEGDCVRCLYHGLKFNPSGACVEIPGQEQIPPKTCIKSYPVVERNRLVWIWMGDPARANPDDIVDYFWHDSPEWRMKPGYIHYQANYKLIVDNLLDFTHLAWVHPTTLGTDSAASLKPVIERDTTGTGKLTITRWYLNDDMSNLHKGVAKFEGKADAWQIIQWSPPALLRNDIGVAPTGTGAPEGRRVPEAVQSRGTHIQTPETETTSHYWFCQARNFDLDDEALTEKIYQGVVVAFEEDRTMIEAHEKILSQVPDRPMVPIAADAGLNQGRWLLDRLLKAENGGTAP
B4: protein (Cecembia lonarensis, UniProt K1KV82); chain QENKEKDRTPSSKHLTDNILQPKRSSDFMAFKYEYSTVDLYREFSESIMDKARSEVEILESVNRQGRYKPNVESLKLHEVPEWFEDAKLGIFLDWGPWSVPGYAPLKGAEASTGGSYPDWYEFLMDNLYKEYHDEVWGADFRRDDFLPLLTGENFNSEEYMLLAVNSGAKYFVPFTKHHAGWTMWESEFTKRNAVEMGPGRDIYKELIEAGKKYDMKMGFYFSVSEWEYPVIVDQNLSQWDPVKNLAIFQDALGQIPRATPLASYFPALHDRMISGKIPVKDYFADYMIPSFKEAVDKYDPDLVWYDGGWGSPVSISRTMETSAYFYNQAEGKKDVVINNRAGSSLSEDDLIKVRDLMDSGKRDEAMKIYLSGQQLGDYGTPEFTIGDVDIQSKWEVCRSISPAFGYNWQDDEASSLSGEELIKLFVDIVANNGNLLLVISPDGSGKLPDIQKDRLLELGDWMKVNAESIHNTRPWKVQKENDKFFTKSKDGKSLFVHCTNWPGENLIINTPIEEGIKGIKLLGSDINLQFTKASNGNLEIPIPKDFQNNPSLISKYVWTFKIDLN
B5: Nudt8 (Mus musculus, UniProt Q9CR24); chain MLPDGLSAEDEQRCRQLLARTTARLRSRPAAAAVLVPLCLVRGVPALLYTLRSSRLVGRHKGEVSFPGGKCDPDDQDVIHTALRETQEELGLEVPKEHVWGVLQPVYDREKATIVPVLANVGPLDLQSLRPNLEEVDEVFEMSLAHLLQTQNQGYTHFCQGGHFSYTLPVFLHGPHRVWGLTAVITELTLKLLAPGFYQPSLAVPELPRG
B6: protein (Shewanella denitrificans, UniProt Q12KT8); chain MIHKLADVQSQNIGDNTKVWQFCVILAGAVIGRNCNICANSLIENDVVIGDNVTIKSGVQIWDGIHIQDDVFIGPNVTFTNDKQPRSKIYPDEYLKTIVKKGASIGANSTILPGILIGENAMVGAGAVITKNVPDNAIVIGNPGRITGYVEANTGVIMPSNNFELKLQMSKVKGVSLHKFHLVNDLRGNLSVGEFEKDIPFTPKRYFTVFGVPNKEVRGEHAHKECKQFLICVSGNCSVLVDDGENREEYVLDSIDKGIYLPPMTWGVQYKYSKDAVLLVFASHYYDSDDYIRDYSTFKQMRQN
B7: GTPBP3 A322P (Homo sapiens, UniProt Q969Y2); chain TRRSSGAPAPGSGATIFALSSGQGRCGIAVIRTSGPASGHALRILTAPRDLPLARHASLRLLSDPRSGEPLDRALVLWFPGPQSFTGEDCVEFHVHGGPAVVSGVLQALGSVPGLRPAEAGEFTRRAFANGKLNLTEVEGLADLIHAETEAQRRQALRQLDGELGHLCRGWAETLTKALAHVEAYIDFGEDDNLEEGVLEQADIEVRALQVALGAHLRDARRGQRLRSGVHVVVTGPPNAGKSSLVNLLSRKPVSIVSPEPGTTRDVLETPVDLAGFPVLLSDTAGLREGVGPVEQEGVRRPRERLEQADLILAMLDASDLASPSSCNFLATVVASVGAQSPSDSSQRLLLVLNKSDLLSPEGPGPGPDLPPHLLLSCLTGEGLDGLLEALRKELAAVCGDPSTDPPLLTRARHQHHLQGCLDALGHYKQSKDLALAAEALRVARGHLTRLTGGGGTEEILDIIFQDFCVGK
B8: CYP6A8 (Drosophila melanogaster, UniProt Q27593); chain MALTYILFQVAVALLAILTYYIHRKLTYFKRRGIPFVAPHLIRGNMEELQKTKNIHEIFQDHYNKFRESKAPFVGFFFFQSPAAFVIDLELAKQILIKDFSNFSNKGIFYNEKDDPISAHLFNLDGAQWRLLRNKLSSTFTSGKMKLMYPTVVSVANEFMTVMHEKVPKNSVLEIRDLVARFTVDVIGTCAFGIQCNSLRDEKAEFLYFGKRSLVDKRHGTLLNGFMRSYPKLARKLGMVRTAPHIQEFYSRIVTETVAVREKEHIKRNDFMDMLIELKNQKEMTLENGDVVRGLTMEEVLAQAFVFFIAGFETSSSTMGFALYELAKNPDIQDKVRAEVEEVIEQHDQNFTYECTKDLKYLNQVLDETLRLYTIVPNLDRMAAKRYVVPGHPNFVIEAGQSVIIPSSAIHHDPSIYPEPFEFRPERFSPEESAGRPSVAWLPFGDGPRNCIGLRFGQMQARIGLALLIRNFKFSTCSKTPNPLVYDPKSFVLGVKDGIYLKVETV
B9: SACOL1063 (Staphylococcus aureus, UniProt Q5HH30); chain MFSKVNNQKMLEDCFYIRKKVFVEEQGVPEESEIDEYESESIHLIGYDNGQPVATARIRPINETTVKIERVAVMKSHRGQGMGRMLMQAVESLAKDEGFYVATMNAQCHAIPFYESLNFKMRGNIFLEEGIEHIEMTKKLTSLN
UniProt P22303, sequence (whole entry, looked up): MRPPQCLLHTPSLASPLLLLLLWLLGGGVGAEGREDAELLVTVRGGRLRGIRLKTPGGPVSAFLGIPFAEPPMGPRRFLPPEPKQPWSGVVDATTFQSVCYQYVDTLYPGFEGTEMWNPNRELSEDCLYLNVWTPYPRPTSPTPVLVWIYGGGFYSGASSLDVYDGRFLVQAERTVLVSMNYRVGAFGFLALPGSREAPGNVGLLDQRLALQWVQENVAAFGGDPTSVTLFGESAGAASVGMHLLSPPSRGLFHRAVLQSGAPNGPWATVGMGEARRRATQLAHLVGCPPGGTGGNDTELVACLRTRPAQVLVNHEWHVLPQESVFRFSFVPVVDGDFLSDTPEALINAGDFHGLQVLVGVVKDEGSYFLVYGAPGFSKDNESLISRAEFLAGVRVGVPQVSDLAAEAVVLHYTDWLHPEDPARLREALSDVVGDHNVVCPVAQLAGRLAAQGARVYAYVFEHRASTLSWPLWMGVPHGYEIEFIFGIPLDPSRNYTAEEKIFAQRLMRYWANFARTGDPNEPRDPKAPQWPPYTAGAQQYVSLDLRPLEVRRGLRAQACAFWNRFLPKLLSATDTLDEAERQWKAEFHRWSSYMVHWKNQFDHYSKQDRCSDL
UniProt Q29437, sequence (whole entry, looked up): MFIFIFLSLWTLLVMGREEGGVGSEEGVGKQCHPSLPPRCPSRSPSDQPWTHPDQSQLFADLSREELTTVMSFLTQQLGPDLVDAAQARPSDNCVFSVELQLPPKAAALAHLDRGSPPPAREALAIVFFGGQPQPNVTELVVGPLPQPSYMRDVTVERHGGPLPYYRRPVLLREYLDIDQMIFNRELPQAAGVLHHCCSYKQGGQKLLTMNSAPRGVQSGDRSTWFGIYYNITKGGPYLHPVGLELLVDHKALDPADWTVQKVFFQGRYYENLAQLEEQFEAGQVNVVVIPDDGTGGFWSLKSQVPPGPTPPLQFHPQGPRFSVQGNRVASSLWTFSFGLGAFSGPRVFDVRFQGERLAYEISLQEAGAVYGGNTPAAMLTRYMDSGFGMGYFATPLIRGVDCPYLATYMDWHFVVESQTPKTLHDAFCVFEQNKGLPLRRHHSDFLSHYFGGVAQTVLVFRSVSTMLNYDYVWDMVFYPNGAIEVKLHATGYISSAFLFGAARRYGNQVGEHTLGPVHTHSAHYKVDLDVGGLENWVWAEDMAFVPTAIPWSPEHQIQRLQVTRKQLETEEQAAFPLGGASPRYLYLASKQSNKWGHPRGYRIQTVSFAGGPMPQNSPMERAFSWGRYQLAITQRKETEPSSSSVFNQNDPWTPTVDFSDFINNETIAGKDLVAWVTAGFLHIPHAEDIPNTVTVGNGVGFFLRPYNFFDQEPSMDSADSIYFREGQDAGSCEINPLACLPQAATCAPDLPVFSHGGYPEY

| Molecule | substrate | system | conditions | kcat/Km |
| --- | --- | --- | --- | --- |
| B1 (ycjQ) | CO[C@H]1O[C@H](CO)[C@H](O)C(=O)[C@H]1O | – | pH 7, 30 °C, together with: NADH 0.3 mM, MnCl2 0.5 mM | 2000 ± 290 M⁻¹ s⁻¹ |
| B2 (sacB S173T) | OC[C@H]1O[C@@](CO)(O[C@H]2O[C@H](CO)[C@@H](O)[C@H](O)[C@H]2O)[C@@H](O)[C@@H]1O | – | pH 6.6 | 2580 M⁻¹ s⁻¹ |
| enzyme (Triticum aestivum, UniProt A0A6J4BJM5) | O=C1[C@@H](O[C@@H]2O[C@H](CO)[C@@H](O)[C@H](O)[C@H]2O)Oc2ccccc2N1O | – | pH 7.2, 30 °C | 2000 M⁻¹ s⁻¹ |
| B3 | COc1cc(C(=O)O)ccc1O | – | apparent, together with: NADH 1 mM | 3200 ± 260 M⁻¹ s⁻¹ |
| AphC (Rhodococcus jostii, UniProt Q0S9X1) | Cc1ccc(O)c(O)c1 | – | pH 8, 25 °C, apparent, together with: O2 | 103000 M⁻¹ s⁻¹ |
| ACHE (Homo sapiens, UniProt P22303) | CC(=O)SCC[N+](C)(C)C | – | pH 8, 22 °C | 6.48e+07 ± 6.47e+06 M⁻¹ s⁻¹ |
| Plasma amine oxidase (Bos taurus, UniProt Q29437) | C[N+](C)(C)CCOc1ccc2cc(CN)ccc2c1 | – | pH 7.2, 30 °C | 3.77e+06 M⁻¹ s⁻¹ |
| B4 (protein) | O=[N+]([O-])c1ccc(O[C@@H]2OC[C@H](O)[C@@H](O)[C@@H]2O)cc1 | – | pH 5.5, 35 °C, substrate inhibition | 509 ± 44 M⁻¹ s⁻¹ |
| B5 (Nudt8) | CC(C)(COP(=O)(O)OP(=O)(O)OC[C@H]1O[C@@H](n2cnc3c(N)ncnc32)[C@H](O)[C@@H]1OP(=O)(O)O)[C@@H](O)C(=O)NCCC(=O)NCCS | – | pH 8.5, together with: 2 mM Mn2+ | 24000 M⁻¹ s⁻¹ |
| B6 (protein) | Cc1cn([C@H]2C[C@H](O)[C@@H](COP(=O)(O)OP(=O)(O)O[C@H]3O[C@H](C)[C@@H](O)[C@H](N)[C@H]3O)O2)c(=O)[nH]c1=O | – | pH 8.5, together with: acetyl-CoA 2 mM | 72000 M⁻¹ s⁻¹ |
| B7 (GTPBP3 A322P) | Nc1nc2c(ncn2[C@@H]2O[C@H](COP(=O)(O)OP(=O)(O)OP(=O)(O)O)[C@@H](O)[C@H]2O)c(=O)[nH]1 | – | pH 8, 37 °C, KCl 300 mM | 81.7 M⁻¹ s⁻¹ |
| B8 (CYP6A8) | CCCCCCCCCC(=O)O | DLPC | pH 7.4, 37 °C, total hydroxylation, together with: P450 reductase, NADPH | 112 ± 28.3 M⁻¹ s⁻¹ |
| protein (Sinorhizobium meliloti, UniProt Q92LZ4) | O=CC(=O)O | – | pH 7.5, 25 °C, NaCl 150 mM, together with: NADPH 0.4 mM | 815 ± 56 M⁻¹ s⁻¹ |
| B9 (SACOL1063) | CC(=O)SCCNC(=O)CCNC(=O)[C@H](O)C(C)(C)COP(=O)(O)OP(=O)(O)OC[C@H]1O[C@@H](n2cnc3c(N)ncnc32)[C@H](O)[C@@H]1OP(=O)(O)O | – | pH 8, 37 °C, together with: L-Thr 10 mM, AcCoA 0-2 mM | 12800 M⁻¹ s⁻¹ |

For quick reference, copied from above:
| Molecule | substrate | system | conditions | kcat/Km |
| --- | --- | --- | --- | --- |
| B3 | COc1cc(C(=O)O)ccc1O | – | apparent, together with: NADH 1 mM | 3200 ± 260 M⁻¹ s⁻¹ |
